# Measured values pooled from the literature.
# Protocols differ between the studies behind these lines. ± marks the error that the study gave.
SMILES,cell line,assay,test system,setting,scale,measurement,result
F[P-](F)(F)(F)(F)F.OCP(CO)CO.OCP(CO)CO.OCP(CO)CO.OCP(CO)CO.[Cu+],DLD-1,MTT,,72 h,baseline: oxaliplatin,sensitivity ratio,15 fold
CC(C)CC(O)(CC(C)C)c1cn(C(=O)N2CCCC2)nn1,mouse T-cells,"protein abundance, unenriched SILAC proteomics, item: TFG",,"1 nM, 6 h, protein median",baseline: DMSO,SILAC ratio,0.93 ± 0.15
N=C(N)Nc1ccc(-c2nc3ccc(-c4ccc5nc(-c6ccc(NC(=N)N)cc6)[nH]c5c4)cc3[nH]2)cc1,"FECD cells, XRN1 siRNA knock-down",RT-qPCR,,concentration not given,,TCF4 intron 3 level,no effect
COc1cc(C)cc2c1OCO2,DU-145,"cell growth or viability, MTT",,72 h,,GI50,> 250 µM
O=C(O)CCC(NP(=O)(O)OCCC[C@@H](NC(=O)CCC(NC(=O)CCCCCNC(=O)c1ccc([18F])cc1)C(=O)O)C(=O)O)C(=O)O (stereo partly drawn),CWR22Rv1,,,2 h,,cell uptake,2.28 ± 0.12%
CC[C@H](C)[C@H](NC(=O)[C@H](CC(C)C)NC(=O)[C@@H](NC(=O)[C@@H](NC(=O)[C@H](CCSC)NC(C)=O)[C@@H](C)CC)[C@@H](C)CC)C(=O)N[C@H](C(=O)N[C@@H](CO)C(=O)N[C@@H](Cc1ccccc1)C(=O)N1CCC[C@H]1C(=O)N[C@@H](CCCCN)C(=O)N[C@@H](Cc1c[nH]cn1)C(=O)N[C@@H](CCCCN)C(=O)N[C@@H](CC(=O)O)C(=O)N[C@@H](Cc1c[nH]c2ccccc12)C(=O)N[C@@H](CCCCN)C(=O)N[C@H](C(=O)N[C@H](C(=O)N[C@@H](CC(C)C)C(=O)N[C@H](C(=O)N[C@@H](CCCCN)C(N)=O)C(C)C)[C@@H](C)CC)C(C)C)[C@@H](C)CC,SLE patient PBMCs,,,dose not given,,TNF-α production,inhibited
CC[C@@]1(O)C(=O)OCc2c1cc1n(c2=O)Cc2cc3cc(OC(=O)CCCC(=O)NCC(=O)N[C@@H](Cc4ccccc4)C(=O)N[C@@H](Cc4ccccc4)C(=O)N[C@@H](Cc4ccc(O)cc4)C(=O)NCCSSCCNC(=O)CCC(=O)N[C@@H](CCC(=O)O)C(=O)N[C@@H](CCCNC(=N)N)C(=O)NCC(=O)N[C@@H](CC(=O)O)C(=O)O)ccc3nc2-1,HepG2 spheroids,,,"100 µM, 7 days",baseline: initial,spheroid volume,~50%
Cc1cccc(-c2cccc(C)n2)n1.[Cl-].[Cl-].[Ru+2].c1ccc(-c2ccccn2)nc1.c1ccc(-c2ccccn2)nc1,A549,"cytotoxicity, resazurin",,"72 h, light irradiation 5 min, λ>400 nm",,EC50,8.3 ± 1.2 µM
CC[C@H](C)[C@H](NC(=O)[C@H](Cc1ccccc1)NC(=O)[C@H](CC(=O)O)NC(=O)[C@H](CCCCN)NC(=O)[C@H](C)NC(=O)[C@H](CCCCN)NC(=O)[C@H](CC(N)=O)NC(=O)[C@H](CC(C)C)NC(=O)[C@H](Cc1c[nH]c2ccccc12)NC(=O)[C@H](CCC(=O)O)NC(=O)[C@H](CCCCN)NC(=O)[C@@H](NC(=O)CN)[C@@H](C)O)C(=O)N[C@@H](CCCCN)C(=O)N[C@@H](CCC(=O)O)C(=O)N[C@@H](CCCCN)C(=O)NCC(=O)N[C@@H](CC(C)C)C(=O)NCC(=O)N[C@@H](CCSC)C(=O)N[C@@H](CC(C)C)C(=O)N[C@@H](CO)C(=O)N[C@@H](C)C(=O)N[C@@H](C)C(=O)N[C@@H](C)C(=O)N[C@@H](CC(N)=O)C(=O)N[C@@H](C)C(=O)N[C@@H](C)C(=O)N[C@@H](CC(C)C)C(=O)N[C@@H](CC(N)=O)C(=O)O,F11 cells,"intracellular calcium, FLIPR",,0.1% BSA,,EC50,> 100 µM
COc1c(C)cc2c(c1OC)OCO2,T47D,cell growth or viability,,72 h,,GI50,> 250 µM
CC1(C)CC([n+]2cc([NH-])on2)CC(C)(C)N1O,primary human trabecular meshwork cells,enzyme immunoassay,,,,cGMP increase plateau concentration,1 mM
N=C(N)NCCC[C@H](N)C(=O)NCC(=O)N[C@@H](CC(=O)O)C(=O)O,NIH 3T3 fibroblasts,,peptide-functionalised PEG-glass,"concentration not given, 4 h",,cell spreading area,2440 ± 984 µm²
COc1cc(C)c(OC)c(OC)c1OC,DU-145,"cell growth or viability, MTT",,72 h,,GI50,> 250 µM
[Cl][Au].[Se]=c1n(C2CCCCC2)ccn1C1CCCCC1,A2780 ADR,MTT,,,baseline: A2780 ADR over A2780,resistance factor,0.7
C[C@H](NC(=O)[C@H](CCCNC(=N)N)NC(=O)[C@H](CCC(=O)O)NC(=O)[C@H](CCCNC(=N)N)NC(=O)[C@H](CCCNC(=N)N)NC(=O)[C@@H](NC(=O)[C@H](CCCNC(=N)N)NC(=O)[C@H](C)NC(=O)[C@H](CCCNC(=N)N)NC(=O)[C@H](CCC(=O)O)NC(=O)[C@@H](N)CCCNC(=N)N)[C@@H](C)O)C(=O)N[C@@H](CCCNC(=N)N)C(=O)N[C@H](C(=O)N[C@@H](CCCNC(=N)N)C(=O)N[C@@H](CCC(=O)O)C(=O)N[C@@H](CCCNC(=N)N)C(=O)N[C@@H](C)C(=O)N[C@@H](CCCNC(=N)N)C(=O)N[C@H](C(=O)N[C@@H](CCCNC(=N)N)C(=O)O)[C@@H](C)O)[C@@H](C)O,A-375,"RT-PCR and western blot, item: VEGF165 mRNA and protein",,concentration not given,,expression level,decreased
CC1CN1c1cc(O)c2nc(N)sc2c1 (stereo not drawn),NUP98-NSD1 mouse cells,"qPCR, item: Hoxa9, Hoxa5, Hoxa7, Meis1",,"concentration not given, 8 days",,mRNA level reduction,≤ 50%
CCCc1cc(OC)c(OC)c(OC)c1OC,DU-145,"cell growth or viability, MTT",,72 h,,GI50,> 250 µM
CNC(=O)c1cc(Oc2ccc(NC(=O)c3ccc(-c4cccc(COC(=O)CCC(=O)OC5OC6OC7(C)CCC8C(C)CCC(C5C)C68OO7)c4)cn3)cc2)ccn1 (stereo not drawn),Huh-7,annexin V/PI flow cytometry,,"2.5 µM, 24 h",,apoptotic cells,9.2%
COc1cc(C)c(OC)c2c1OCO2,T47D,"cell growth or viability, MTT",,72 h,,GI50,> 250 µM
COC[C@@H](NC(C)=O)C(=O)NCc1ccc(-c2cccc(I)c2)cc1,CAD,Na+ current,,10 µM,"baseline: 0.1% DMSO, hyperpolarizing",V1/2 shift,~8.2 mV
CN1C(=O)C2(Cc3ccc(CC45SSC(CO)(C(=O)N4C)N(C)C5=O)cc3)SSC1(CO)C(=O)N2C (racemic),MCF7,microarray,,"600 nM, fold-change cutoff 2.0, added: deferoxamine",,number of inhibited transcripts,113
CC(C)=CCC/C(C)=C/C[P+](c1ccccc1)(c1ccccc1)c1ccccc1,T47D,"cell growth or viability, MTT",,72 h,,GI50,0.053 µM
CC(N)C(O)CCCCCCCCCCCCCCC(=O)CCCCCCCC(O)C(C)N (stereo not drawn),HCC70,"cytotoxicity, resazurin",,,baseline: MCF-12A over HCC70,selectivity index,2
CC/C=C\C/C=C\C/C=C\C/C=C\C/C=C\C/C=C\CCC(=O)Nc1ccn(C2OC(CO)C(O)C2(F)F)c(=O)n1 (stereo not drawn),SK-MEL-5,NCI60 screen,,,,CC50,42.1 µM
